Published values pooled from the literature.
Each numbered part is a random draw from the data of one study; scales do not carry over between parts.

Sample 1
Target: Ras GTPase-activating protein-binding protein 1, C-terminal RGG region (G3BP1, Homo sapiens, UniProt Q13283)
Chain of UniProt Q13283 (whole entry, looked up): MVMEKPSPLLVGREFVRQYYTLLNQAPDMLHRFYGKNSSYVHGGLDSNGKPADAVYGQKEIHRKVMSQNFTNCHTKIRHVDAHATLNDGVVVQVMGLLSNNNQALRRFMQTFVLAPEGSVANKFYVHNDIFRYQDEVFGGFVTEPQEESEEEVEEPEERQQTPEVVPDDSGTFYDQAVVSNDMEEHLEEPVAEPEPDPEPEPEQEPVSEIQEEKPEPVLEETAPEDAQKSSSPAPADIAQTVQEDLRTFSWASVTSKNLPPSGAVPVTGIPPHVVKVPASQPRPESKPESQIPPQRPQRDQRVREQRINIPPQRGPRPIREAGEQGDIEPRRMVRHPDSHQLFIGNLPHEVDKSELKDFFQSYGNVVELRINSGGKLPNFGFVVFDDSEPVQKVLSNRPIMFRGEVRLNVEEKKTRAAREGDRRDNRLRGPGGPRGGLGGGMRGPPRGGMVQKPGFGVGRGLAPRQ
Method: RNA Bind-n-Seq
Molecule type: RNA
Matrix: in vitro
Concentration: 1 µM
Setting: whole 134-nt RNA, ends assumed
With: 150 mM KCl
Reference: input library
Direction: higher = stronger binding
Quantity: log2 enrichment
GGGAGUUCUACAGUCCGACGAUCGCACGAAGUAAAAACAAAUGGAAAUGCUUCGGAUAGUGGCAGGGGUGGGGGUUGCUAAGGAAAGGGUGGGAUGGGAGUGGGUAAAGAGUUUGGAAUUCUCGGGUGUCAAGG: 1.71
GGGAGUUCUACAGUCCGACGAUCCCUGUGCUACACAUCGUAUGUACCGAAUCGGGCCCCCCGGGGCCCCCCGGCCCCCCGGGGAAAGUAUUAUGUUACGCCGUUCGGAUCUGCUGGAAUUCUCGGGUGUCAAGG: -2.06
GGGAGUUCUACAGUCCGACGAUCUGGCCCUGGUGGGAUGCGGGGAGGAAGAGGUGGCCUCAUGGAUCGUGGUGGUCCCGGUGGAAUGUUCAGAGGUGGCCGUGGUGGAGACAGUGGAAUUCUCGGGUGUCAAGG: 1.99
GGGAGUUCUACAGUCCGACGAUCCAAGUCCUGUGCUACACAUCGUAUGUACCGAAUCGGGCCCCGGCCCCGGCCCCGGAAAGUAUUAUGUUACGCCGUUCGGAUCUGCACUUCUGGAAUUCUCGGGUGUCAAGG: -2.35
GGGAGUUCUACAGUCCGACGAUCUCAAGUCCUGUGCUACACAUCGUAUGUACCGAAUCGGUUUUUGGUUUGGUUUGGAAAGUAUUAUGUUACGCCGUUCGGAUCUGCACUUCCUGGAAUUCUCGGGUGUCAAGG: -1.29
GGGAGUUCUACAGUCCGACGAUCUAACUUUAGAGGAGGAUCUGAUGGAUAUGGCAGUAGACGUGGAUUUGGGGAUGGCUAUAAUGGGUAUGGAGGAGGACCUGGAGGUGGCAAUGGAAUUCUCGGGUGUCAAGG: -0.952
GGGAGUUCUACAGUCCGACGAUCCCUCAAGUCCUGUGCUACACAUCGUAUGUACCGAAUCGGUUUGGAAAGGUGGAAAGUAUUAUGUUACGCCGUUCGGAUCUGCACUUCCAGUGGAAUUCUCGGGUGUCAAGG: -0.78
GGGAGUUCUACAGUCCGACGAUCUAACUUUAGAGGAGGAUCUGAUGGAGAUGGCAGUGGACGUGGAUUUGGGGAUGGCUAUAAUGGGUAUGGAGGAGGACCUGGAGGUGGCAAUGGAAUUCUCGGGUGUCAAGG: 0.381

Sample 2
Target: RING finger protein unkempt homolog, zinc fingers 1-6, GST-SBP tag (UNK, Homo sapiens, UniProt Q9C0B0, residues 30-357)
Method: RNA Bind-n-Seq
Molecule type: RNA
Matrix: in vitro
Concentration: not given
Setting: RNA with constant flanks, human and mouse sites, ends assumed
Reference: input RNA pool
Direction: higher = stronger binding
Quantity: bound/input enrichment
Construct (chain): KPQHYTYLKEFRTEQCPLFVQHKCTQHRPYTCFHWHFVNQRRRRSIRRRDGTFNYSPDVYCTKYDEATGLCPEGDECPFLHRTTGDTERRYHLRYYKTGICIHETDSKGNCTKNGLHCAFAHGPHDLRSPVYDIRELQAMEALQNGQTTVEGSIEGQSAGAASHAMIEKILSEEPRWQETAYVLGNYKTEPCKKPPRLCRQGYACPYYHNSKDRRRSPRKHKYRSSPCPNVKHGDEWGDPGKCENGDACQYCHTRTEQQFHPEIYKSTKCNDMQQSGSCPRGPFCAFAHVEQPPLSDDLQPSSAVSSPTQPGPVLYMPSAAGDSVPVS
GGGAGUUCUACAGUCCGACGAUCGUCUCAGAAGCUGCUGCUGACAGCCUCCAUGAUUUUAGAAUUAAUAUUUUGUCGAUUGAUGAUCUGGUUCUGGCUGACGGAGACAAAUCAGAUGGGGACCAGAGAGAGGAAGACUGUGUACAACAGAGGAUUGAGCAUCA: 3.04 ratio
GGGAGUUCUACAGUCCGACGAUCUUGAAUGAUUUUGGCUUCAUGAUCUUUCACUCACCAUAUUGUAAACUGGUUCAGAAAUCUCUAGCUCGGAUGUUGCUGAAUGACUUCCUUAAUGACCAGAAUAGAGAUAAAAAUAGUAUCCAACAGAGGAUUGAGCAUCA: 1.73 ratio
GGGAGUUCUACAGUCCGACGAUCGAAACAUUUAAUGAAGAUGACUCGGACAUAGGCAGAGCUGGCCACAGUAUGCGAAAAUACUUUGAAAAAAAGUGGACAGAUACCUUCAAAGUGAGCUGAAGUUGUAAUCUCCUUUUUCUCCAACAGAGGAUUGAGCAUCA: 0.17 ratio
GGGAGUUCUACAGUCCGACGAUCCUCACCUAUGAAGUCAUUGGAUUUGCCAAUGUCGUAGUCCCAGACUGUGACCUCCAGGGUCUUAGUGGCCAGAGUGGAGAGUUCAAUCUCAUAGAAGAAUUCCUGAGAACAAAGGCAGGCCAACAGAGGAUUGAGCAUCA: 0.233 ratio
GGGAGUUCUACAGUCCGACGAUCAGAAAAAUCCAUCUCUCUGAAUUAAUGCUUGAGAAAUGCCCUUUUCCUGCUGGCUCAGAUUUAGCCCAAAAAUGGCAUUUGAUUAAACAGCAUACAGCUCCUGUGAGCCCACAUUCAACACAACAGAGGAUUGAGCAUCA: 0.24 ratio
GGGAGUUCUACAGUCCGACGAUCCCAGUCCGAAAAAGAAUGCUGGAAAAACGAGGGGAAGACUUUAAAAAAGAAGGGAAAAUAUACAGACUGAGGACUCAAGAUGACGGUGAAGACGAGAACAACACUUGGAAUGGAAACUCCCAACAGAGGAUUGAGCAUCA: 0.437 ratio
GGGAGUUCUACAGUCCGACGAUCAUGCCAAGUGUUUCUAAGCUUUAUUCUGAGAACUGACUUUCAACCUUCAGGUAUGCAUUUAUAGAAUUUGCUUCAUUUGAAGAUGCUAAAGAAGCUUUAAAUUCCUGUAAUAAAAUGGAACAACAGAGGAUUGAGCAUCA: 0.0873 ratio
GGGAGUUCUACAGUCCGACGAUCGCUAGUUCUAGUUAGUCUAUAUUGUUUGUUUUUUCAGUCUUCUUUUUCUAGCAUGCUUUACAUAGGAGAGAAUAAAGGGCUAUUUAAUAAGCAAUCCGGAUCUCAGAGAACAUAGUAAUACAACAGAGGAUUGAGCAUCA: 2.48 ratio

Sample 3
Target: Histone acetyltransferase KAT6A, winged helix 1, GST fusion (KAT6A, Homo sapiens, UniProt Q92794, residues 1-85)
Method: protein binding microarray
Molecule type: double-stranded DNA, one strand shown
Matrix: in vitro
Concentration: not given
Setting: 8-mer, flanks averaged, mean of 2 arrays, mostly near background
Reference: not given
Direction: higher = stronger binding
Quantity: E-score
Construct (chain): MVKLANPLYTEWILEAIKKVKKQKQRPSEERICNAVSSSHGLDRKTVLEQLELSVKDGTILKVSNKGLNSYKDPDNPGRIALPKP
ATGCCGCA: 0.297
GCTCAAGA: -0.0721
GAATGCAA: -0.146
CGAGATCG: -0.086
AGGGATTA: -0.147
GATTAGCA: -0.0055
GACTTAAA: -0.133
CAGGAATA: -0.00127
ACCCATTA: -0.165
AACTATCA: -0.16

Mixed results
PhoQ, residues 284 288 289 292 302 303 WVSSAF  fold induction (PhoP, residues 12 14 15 18 19 QWHVF (Escherichia coli, UniProt P23836); Sort-seq, item: YFP reporter; E. coli; PhoQ-PhoP variant library, with: 10 µM Mg2+; reference: high Mg2+ state, higher = stronger signaling): 12.9

A few entries again (sample 3):
CAGGAATA: -0.00127
